Results of several laboratories.
Numbered parts are unrelated; each lists some results of a single study. Changes are numbered by the printed parent chain.

Block 1
Target: CCND3, cyclin fold, Cln2 fusion (human)
Method: yeast growth competition, sequencing
Sample: yeast
Setting: weak parent motif
Reference: not given
Reading: higher = stronger binding
Parent: WEE1 docking peptide (human); HKTFRKLRLFDTP
Substitution | normalised enrichment score
IKTFRKLRLFDTP [H1I] | 0.276
HKTFRKLRLFVTP [D11V] | 0.0627
HKTFRKLRLFDTG [P13G] | 0.0812

Block 2
Target: Interferon regulatory factor 7, full length, phosphomimetic (IRF7, Homo sapiens, UniProt Q92985, residues 1-503, S471D/S472D/S475D/S476D/S477D/S483D/S484D/S487D)
Method: protein-binding microarray
Form: double-stranded DNA, one strand shown
Sample: in vitro
Concentration: 2200 nM top
Setting: 60-bp whole probe
Added: salmon DNA 0.4 mg/ml
Reference: random background probes
Reading: higher = stronger binding
Constant ends, left off below: GCCTAGCAC … GTCTTGATTCGCTTGACGCTGCTG
Construct (chain): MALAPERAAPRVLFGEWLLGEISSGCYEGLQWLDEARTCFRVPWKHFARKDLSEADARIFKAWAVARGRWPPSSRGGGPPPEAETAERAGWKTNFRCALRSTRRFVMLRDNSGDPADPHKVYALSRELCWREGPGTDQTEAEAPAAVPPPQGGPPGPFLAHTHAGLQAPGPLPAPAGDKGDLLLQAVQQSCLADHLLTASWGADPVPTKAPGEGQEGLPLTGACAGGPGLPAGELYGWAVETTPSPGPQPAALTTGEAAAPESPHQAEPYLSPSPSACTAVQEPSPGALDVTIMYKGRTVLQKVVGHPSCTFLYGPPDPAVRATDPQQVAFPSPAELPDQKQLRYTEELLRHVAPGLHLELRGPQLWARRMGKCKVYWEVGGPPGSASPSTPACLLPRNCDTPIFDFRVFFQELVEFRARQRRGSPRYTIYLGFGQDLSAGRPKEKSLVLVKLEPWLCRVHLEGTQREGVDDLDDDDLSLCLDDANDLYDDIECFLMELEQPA
Strand | fitted relative affinity
TTAGATATGGGGACTGGATTAGTGCTA | -0.156 z-score
TCATGCCTATTTTTCACACTGTGCTAG | 1.56 z-score
TTTGATTTCAGTTCCGATTAGTGCTAG | 2.66 z-score
GAGGATTTCGGGACTGGAGACGTGCTA | 0.575 z-score
GACGGTTTCCTGTCCCTGACGTGCTAG | 2.8 z-score
GACGAACTGGGGACTGGACACGTGCTA | -0.436 z-score
GGGTTTTTTAGGCAGACAGCGTGCTAG | 0.0429 z-score

Block 3
Target: PABPC1L2, full length, GST fusion (mouse, UniProt A0ABA7IW68)
Method: RNAcompete
Form: RNA
Sample: in vitro
Concentration: 20 nM
Setting: 7-mer, probes averaged, single round
Reference: mean of 7-mers
Reading: higher = stronger binding
Residues (chain): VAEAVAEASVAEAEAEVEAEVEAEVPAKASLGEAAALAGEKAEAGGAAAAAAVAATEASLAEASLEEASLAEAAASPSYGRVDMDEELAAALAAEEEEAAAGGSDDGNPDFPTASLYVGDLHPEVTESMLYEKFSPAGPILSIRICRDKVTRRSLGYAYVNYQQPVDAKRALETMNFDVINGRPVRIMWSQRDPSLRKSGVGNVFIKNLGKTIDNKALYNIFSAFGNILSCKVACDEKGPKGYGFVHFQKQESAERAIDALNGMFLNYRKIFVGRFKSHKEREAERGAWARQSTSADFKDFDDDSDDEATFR
Strand | 7-mer Z-score
GACGAUA | 0.0895
GGUAGUU | -0.351
CAUGUGG | 0.00798
GACAACU | -0.00108
GCCUAAC | -0.257
UUGUCGG | -0.394
UGUGUGG | -0.208
GUACUGG | -0.0482

Further values, each from its own experiment
Molecule | target | assay | test system | conditions | scale | quantity | value
PhoQ, residues 284 288 289 292 302 303 AQGLTV | PhoP, residues 12 14 15 18 19 SGWQI (Escherichia coli, UniProt P23836) | Sort-seq, item: YFP reporter | E. coli | PhoQ-PhoP variant library, added: 10 µM Mg2+ | reference: high Mg2+ state, higher = stronger signaling | fold induction | 1.23
